Assay results pooled from the literature.
Parts stem from different laboratories: compare values within a part only.
UniProt P53350, sequence (whole entry, looked up): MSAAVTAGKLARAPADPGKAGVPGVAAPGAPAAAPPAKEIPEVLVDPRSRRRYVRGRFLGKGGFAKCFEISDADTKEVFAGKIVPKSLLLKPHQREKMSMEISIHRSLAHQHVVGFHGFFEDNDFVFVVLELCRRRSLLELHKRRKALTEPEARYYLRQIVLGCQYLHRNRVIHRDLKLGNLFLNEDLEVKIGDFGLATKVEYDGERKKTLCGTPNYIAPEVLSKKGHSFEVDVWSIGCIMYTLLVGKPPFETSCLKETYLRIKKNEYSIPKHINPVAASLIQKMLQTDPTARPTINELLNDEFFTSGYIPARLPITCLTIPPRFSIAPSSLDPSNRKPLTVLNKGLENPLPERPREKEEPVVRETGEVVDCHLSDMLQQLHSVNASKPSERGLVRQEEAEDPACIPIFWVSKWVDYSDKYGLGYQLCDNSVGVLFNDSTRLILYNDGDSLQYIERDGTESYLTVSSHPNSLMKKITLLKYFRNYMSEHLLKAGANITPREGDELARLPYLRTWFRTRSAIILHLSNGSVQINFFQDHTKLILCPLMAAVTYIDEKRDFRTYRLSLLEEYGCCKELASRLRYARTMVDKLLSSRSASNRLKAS
UniProt Q14831, sequence (whole entry, looked up): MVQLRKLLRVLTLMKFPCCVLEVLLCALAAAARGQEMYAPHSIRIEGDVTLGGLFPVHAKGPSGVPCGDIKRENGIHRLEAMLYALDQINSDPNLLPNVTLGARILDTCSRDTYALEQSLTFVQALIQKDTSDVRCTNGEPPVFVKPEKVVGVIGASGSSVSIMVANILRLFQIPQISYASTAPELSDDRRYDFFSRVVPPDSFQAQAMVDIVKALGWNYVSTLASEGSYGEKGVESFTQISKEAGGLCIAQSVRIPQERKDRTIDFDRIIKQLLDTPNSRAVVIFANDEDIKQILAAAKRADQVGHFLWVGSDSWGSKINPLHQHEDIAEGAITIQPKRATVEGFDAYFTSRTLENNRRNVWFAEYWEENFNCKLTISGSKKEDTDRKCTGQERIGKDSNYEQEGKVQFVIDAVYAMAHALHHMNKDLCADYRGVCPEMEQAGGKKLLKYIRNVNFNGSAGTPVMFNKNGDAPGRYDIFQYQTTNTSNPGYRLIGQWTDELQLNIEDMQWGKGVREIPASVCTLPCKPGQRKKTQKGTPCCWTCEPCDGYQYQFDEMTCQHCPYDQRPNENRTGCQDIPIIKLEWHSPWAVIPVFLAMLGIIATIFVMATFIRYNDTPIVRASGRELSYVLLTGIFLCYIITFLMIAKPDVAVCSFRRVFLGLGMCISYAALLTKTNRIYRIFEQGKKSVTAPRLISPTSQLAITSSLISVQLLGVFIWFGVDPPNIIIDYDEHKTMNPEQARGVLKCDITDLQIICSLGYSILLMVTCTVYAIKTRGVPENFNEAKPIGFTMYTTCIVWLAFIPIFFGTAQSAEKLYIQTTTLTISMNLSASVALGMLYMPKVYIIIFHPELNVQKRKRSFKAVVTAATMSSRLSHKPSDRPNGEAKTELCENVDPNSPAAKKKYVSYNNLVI
UniProt P41231, sequence (whole entry, looked up): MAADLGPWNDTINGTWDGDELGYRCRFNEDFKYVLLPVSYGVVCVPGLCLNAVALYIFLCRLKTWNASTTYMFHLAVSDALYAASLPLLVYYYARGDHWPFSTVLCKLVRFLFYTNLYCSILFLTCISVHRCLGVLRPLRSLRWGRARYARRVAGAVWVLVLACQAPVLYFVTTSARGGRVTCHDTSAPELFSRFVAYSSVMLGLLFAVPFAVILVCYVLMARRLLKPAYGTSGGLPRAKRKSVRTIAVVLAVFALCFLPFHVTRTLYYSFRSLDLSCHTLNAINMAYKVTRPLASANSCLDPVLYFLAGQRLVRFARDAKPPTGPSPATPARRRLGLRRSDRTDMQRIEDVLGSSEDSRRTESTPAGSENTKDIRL
UniProt Q99759, sequence (whole entry, looked up): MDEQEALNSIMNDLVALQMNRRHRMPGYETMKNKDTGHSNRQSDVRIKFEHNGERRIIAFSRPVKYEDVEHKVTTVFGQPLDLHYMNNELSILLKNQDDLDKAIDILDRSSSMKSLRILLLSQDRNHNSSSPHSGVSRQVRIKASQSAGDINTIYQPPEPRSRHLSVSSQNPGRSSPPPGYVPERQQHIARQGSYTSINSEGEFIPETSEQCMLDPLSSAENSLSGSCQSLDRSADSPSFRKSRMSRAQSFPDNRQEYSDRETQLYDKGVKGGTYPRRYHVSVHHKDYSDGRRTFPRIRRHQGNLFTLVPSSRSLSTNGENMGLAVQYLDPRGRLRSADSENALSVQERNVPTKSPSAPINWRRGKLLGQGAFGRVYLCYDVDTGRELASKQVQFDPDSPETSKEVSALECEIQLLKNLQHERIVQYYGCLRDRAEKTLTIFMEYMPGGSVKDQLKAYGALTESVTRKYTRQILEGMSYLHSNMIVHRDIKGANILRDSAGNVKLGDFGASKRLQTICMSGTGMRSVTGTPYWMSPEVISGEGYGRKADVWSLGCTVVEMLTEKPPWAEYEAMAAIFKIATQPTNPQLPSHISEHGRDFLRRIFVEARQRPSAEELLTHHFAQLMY
UniProt Q6W5P4, sequence (whole entry, looked up): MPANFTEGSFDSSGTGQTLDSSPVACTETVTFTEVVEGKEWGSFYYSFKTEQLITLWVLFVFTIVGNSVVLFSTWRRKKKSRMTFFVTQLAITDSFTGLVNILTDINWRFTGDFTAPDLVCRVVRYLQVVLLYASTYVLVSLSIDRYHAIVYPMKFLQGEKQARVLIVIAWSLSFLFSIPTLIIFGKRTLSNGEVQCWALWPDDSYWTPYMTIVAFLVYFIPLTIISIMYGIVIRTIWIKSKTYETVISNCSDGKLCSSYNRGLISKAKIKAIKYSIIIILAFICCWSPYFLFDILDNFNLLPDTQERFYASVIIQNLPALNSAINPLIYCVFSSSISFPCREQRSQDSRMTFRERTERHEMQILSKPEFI
UniProt P42336, sequence (whole entry, unmodified, looked up): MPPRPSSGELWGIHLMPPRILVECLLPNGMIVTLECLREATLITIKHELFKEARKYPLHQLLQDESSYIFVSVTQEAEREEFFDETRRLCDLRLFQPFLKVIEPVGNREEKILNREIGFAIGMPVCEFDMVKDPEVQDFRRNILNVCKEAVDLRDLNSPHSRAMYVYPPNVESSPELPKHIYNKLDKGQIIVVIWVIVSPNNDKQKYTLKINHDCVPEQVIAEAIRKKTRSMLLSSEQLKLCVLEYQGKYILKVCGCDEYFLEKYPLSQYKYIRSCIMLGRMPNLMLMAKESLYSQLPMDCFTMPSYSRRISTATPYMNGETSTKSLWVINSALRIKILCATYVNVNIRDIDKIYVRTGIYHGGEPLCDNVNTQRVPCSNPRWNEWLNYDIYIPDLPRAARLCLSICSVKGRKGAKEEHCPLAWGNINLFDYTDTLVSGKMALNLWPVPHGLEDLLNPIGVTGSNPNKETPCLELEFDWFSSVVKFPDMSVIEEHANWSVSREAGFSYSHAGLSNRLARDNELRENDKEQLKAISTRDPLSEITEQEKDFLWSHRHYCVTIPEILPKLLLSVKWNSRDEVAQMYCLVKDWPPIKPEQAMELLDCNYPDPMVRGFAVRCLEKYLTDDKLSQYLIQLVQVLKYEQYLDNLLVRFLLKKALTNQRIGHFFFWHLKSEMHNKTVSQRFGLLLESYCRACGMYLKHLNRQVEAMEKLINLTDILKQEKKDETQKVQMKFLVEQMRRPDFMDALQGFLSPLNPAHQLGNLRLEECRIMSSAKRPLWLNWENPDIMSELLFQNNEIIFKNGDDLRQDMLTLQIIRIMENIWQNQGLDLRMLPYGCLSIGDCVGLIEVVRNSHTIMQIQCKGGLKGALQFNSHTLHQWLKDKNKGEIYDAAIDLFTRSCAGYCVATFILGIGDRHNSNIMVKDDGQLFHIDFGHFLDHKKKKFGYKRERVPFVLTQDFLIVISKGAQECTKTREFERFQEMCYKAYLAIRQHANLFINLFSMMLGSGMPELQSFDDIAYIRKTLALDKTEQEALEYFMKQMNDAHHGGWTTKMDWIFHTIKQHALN
UniProt P08631, sequence (whole entry, looked up): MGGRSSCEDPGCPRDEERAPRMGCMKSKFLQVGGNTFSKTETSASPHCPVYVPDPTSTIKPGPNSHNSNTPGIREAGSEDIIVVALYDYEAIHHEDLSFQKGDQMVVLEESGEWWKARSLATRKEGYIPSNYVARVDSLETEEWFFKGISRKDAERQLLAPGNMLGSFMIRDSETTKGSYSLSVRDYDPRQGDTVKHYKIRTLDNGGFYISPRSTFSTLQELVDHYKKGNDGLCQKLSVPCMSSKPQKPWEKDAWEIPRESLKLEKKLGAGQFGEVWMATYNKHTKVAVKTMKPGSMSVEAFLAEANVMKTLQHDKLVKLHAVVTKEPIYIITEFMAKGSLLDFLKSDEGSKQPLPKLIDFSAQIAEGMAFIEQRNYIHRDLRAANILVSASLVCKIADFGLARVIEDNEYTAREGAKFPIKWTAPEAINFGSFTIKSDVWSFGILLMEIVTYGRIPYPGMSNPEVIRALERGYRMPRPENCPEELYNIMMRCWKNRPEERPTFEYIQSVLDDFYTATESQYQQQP

Block 1 — species: mouse; sample: microsomes or S9; tested at: 2 µM; time: 0.5 h; endpoint: remaining compound
CC(CO)Oc1cc(-n2nc3c(c2Cl)CCCC3)c(F)cc1Cl (stereo not drawn): 0.155%
CC1CCN(C=C(S(=O)(=O)c2ccccc2)S(=O)(=O)c2ccccc2)CC1: 1.7%
Cc1cccn2c(=O)c(/C=N/O)c(NCc3ccco3)nc12: > 99%
COc1ccc([C@H]2COc3c(ccc(O)c3OC)C2)c(OC)c1O: 10.8%
CCCOc1ccc2c(c1)C(O)CC1(CCNCC1)O2 (stereo not drawn): 66.8%
CC1NC(=O)CCC1NS(=O)(=O)c1cccc2ccoc12 (stereo not drawn): 75.3%
CC1CCN2c3cc(Cl)ccc3CC3(C(=O)OC(C)(C)OC3=O)C2C1 (stereo not drawn): > 100%
CCCn1cnc2cc(-c3noc(-c4ccc(Br)o4)n3)ccc21: 21.9%
Cc1ccc(C)c(CNc2cc(-n3ccnc3)ncn2)c1: 24.4%
Oc1cccc(-c2ncc(-c3ccccc3O)o2)c1: 0.0979%

Block 2 — read-out: cell-free assay; method: competition with immobilised ligand; tested at: 1 µM; endpoint: remaining binding
SMILES: COc1cccc(CNC(=O)c2nc3scc(COCc4ccc(C(=O)O)cc4)c3c(=O)[nH]2)c1
EGFR (Homo sapiens, UniProt P00533, del747-750/T751S): 74%
TAOK3 (Homo sapiens, UniProt Q9H2K8): 72.3%
SRC (Homo sapiens, UniProt P12931): 100%
NEK5 (Homo sapiens, UniProt Q6P3R8): 100%
LIM domain kinase 2 (LIMK2, Homo sapiens, UniProt P53671): 96.2%
MARK4 (Homo sapiens, UniProt Q96L34): 89.2%
Ribosomal protein S6 kinase alpha-2, N-terminal kinase domain (RPS6KA2, Homo sapiens, UniProt Q15349): 100%
PIK3CA (Homo sapiens, UniProt P42336, Q546K): 70.4%
AKT2 (Homo sapiens, UniProt P31751): 93.3%
MET (Homo sapiens, UniProt P08581, M1250T): 98%
MAP3K3 (Homo sapiens, UniProt Q99759): 78.9%
EGFR (Homo sapiens, UniProt P00533, T790M): 92.1%
FLT3 (Homo sapiens, UniProt P36888, D835H): 92.9%
HCK (Homo sapiens, UniProt P08631): 79.7%
MAP4K2 (Homo sapiens, UniProt Q12851): 83%
STK11 (Homo sapiens, UniProt Q15831): 97.2%
NEK3 (Homo sapiens, UniProt P51956): 78.1%

Block 3 — SMILES: NC(N)=NC(=O)c1nc(Cl)c(N2CCCCCC2)nc1N; read-out: β-arrestin recruitment; mode: agonist; method: PRESTO-Tango; tested at: 10 µM; baseline: untreated; endpoint: fold over basal
GRM7 (Homo sapiens, UniProt Q14831): 1.14 fold
HRH4 (Homo sapiens, UniProt Q9H3N8): 0.95 fold
NPSR1 (Homo sapiens, UniProt Q6W5P4): 1.72
CXCR3 (Homo sapiens, UniProt P49682): 1.06
HCAR2 (Homo sapiens, UniProt Q8TDS4): 0.79 fold
P2Y purinoceptor 2 (P2RY2, Homo sapiens, UniProt P41231): 0.51

Block 4 — read-out: kinase activity; mode: inhibitor; tested at: 1 µM; endpoint: remaining activity
Structure (SMILES): CC(C)S(=O)(=O)c1ccc2nccc(Nc3ccc4sc(C5CCCC5)nc4c3)c2c1.Cl
AKT1 (Homo sapiens, UniProt P31749): 94%
MARK2 (Homo sapiens, UniProt Q7KZI7): 95%
MKNK1 (Homo sapiens, UniProt Q9BUB5): 116%
VRK2 (Homo sapiens, UniProt Q86Y07): 95%
EEF2K (Homo sapiens, UniProt O00418): 103%
PLK1 (Homo sapiens, UniProt P53350): 80%

Some of these lines once more (block 2):
SRC (Homo sapiens, UniProt P12931): 100%
NEK5 (Homo sapiens, UniProt Q6P3R8): 100%
HCK (Homo sapiens, UniProt P08631): 79.7%
LIM domain kinase 2 (LIMK2, Homo sapiens, UniProt P53671): 96.2%
Ribosomal protein S6 kinase alpha-2, N-terminal kinase domain (RPS6KA2, Homo sapiens, UniProt Q15349): 100%
